# Measurements collected from several papers.
# Numbered parts are unrelated; each lists some results of a single study.
# Chain of UniProt P45983 (whole entry, looked up): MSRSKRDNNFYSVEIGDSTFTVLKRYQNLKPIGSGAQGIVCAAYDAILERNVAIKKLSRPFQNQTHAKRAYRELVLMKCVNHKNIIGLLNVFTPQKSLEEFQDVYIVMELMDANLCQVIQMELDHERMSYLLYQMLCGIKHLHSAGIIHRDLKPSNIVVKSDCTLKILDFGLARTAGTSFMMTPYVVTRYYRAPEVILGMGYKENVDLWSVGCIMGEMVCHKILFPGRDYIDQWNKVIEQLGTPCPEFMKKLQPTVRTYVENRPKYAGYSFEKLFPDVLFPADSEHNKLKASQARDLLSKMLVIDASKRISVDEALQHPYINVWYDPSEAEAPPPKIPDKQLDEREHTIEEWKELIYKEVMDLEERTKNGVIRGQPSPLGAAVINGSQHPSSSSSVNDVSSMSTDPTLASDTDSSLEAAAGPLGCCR
# Chain of UniProt P05771 (whole entry, looked up): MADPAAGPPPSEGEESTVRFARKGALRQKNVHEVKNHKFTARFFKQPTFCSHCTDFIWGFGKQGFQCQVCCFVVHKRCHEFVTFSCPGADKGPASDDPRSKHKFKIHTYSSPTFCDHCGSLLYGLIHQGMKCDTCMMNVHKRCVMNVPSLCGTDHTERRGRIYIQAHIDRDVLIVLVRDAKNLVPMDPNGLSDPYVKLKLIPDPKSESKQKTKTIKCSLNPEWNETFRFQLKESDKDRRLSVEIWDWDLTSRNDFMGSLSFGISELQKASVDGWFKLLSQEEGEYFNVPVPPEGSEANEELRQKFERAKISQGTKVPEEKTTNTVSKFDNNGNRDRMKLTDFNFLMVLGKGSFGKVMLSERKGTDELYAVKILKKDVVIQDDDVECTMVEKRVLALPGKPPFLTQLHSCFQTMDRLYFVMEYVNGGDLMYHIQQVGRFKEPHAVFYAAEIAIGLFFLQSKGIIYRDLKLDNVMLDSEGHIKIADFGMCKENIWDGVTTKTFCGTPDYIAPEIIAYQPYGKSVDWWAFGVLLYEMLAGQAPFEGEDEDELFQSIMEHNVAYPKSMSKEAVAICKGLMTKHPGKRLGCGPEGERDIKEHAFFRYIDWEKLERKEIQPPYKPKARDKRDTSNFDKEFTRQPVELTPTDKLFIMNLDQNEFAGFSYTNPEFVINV
# Chain of UniProt Q9P289 (whole entry, looked up): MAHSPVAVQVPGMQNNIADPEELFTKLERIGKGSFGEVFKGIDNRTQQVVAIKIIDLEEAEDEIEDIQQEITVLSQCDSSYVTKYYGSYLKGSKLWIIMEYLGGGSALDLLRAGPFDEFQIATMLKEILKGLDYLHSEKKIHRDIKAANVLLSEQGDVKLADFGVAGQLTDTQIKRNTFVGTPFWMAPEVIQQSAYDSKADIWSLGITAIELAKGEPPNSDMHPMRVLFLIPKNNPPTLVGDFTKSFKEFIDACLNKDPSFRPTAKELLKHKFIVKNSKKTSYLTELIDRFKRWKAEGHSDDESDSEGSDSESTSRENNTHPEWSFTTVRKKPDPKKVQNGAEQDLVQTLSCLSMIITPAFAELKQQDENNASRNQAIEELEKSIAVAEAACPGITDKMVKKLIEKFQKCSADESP
# Chain of UniProt P41145 (whole entry, looked up): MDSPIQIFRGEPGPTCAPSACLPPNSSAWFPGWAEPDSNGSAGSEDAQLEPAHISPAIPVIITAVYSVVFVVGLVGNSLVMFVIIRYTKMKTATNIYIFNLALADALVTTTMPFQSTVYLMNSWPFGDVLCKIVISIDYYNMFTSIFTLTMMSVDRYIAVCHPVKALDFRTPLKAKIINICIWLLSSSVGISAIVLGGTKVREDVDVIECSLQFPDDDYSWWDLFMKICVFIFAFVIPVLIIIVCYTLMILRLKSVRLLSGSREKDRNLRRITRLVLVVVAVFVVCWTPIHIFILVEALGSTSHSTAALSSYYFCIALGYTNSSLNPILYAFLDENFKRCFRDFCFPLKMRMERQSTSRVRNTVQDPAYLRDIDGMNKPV
# Chain of UniProt O43293 (whole entry, looked up): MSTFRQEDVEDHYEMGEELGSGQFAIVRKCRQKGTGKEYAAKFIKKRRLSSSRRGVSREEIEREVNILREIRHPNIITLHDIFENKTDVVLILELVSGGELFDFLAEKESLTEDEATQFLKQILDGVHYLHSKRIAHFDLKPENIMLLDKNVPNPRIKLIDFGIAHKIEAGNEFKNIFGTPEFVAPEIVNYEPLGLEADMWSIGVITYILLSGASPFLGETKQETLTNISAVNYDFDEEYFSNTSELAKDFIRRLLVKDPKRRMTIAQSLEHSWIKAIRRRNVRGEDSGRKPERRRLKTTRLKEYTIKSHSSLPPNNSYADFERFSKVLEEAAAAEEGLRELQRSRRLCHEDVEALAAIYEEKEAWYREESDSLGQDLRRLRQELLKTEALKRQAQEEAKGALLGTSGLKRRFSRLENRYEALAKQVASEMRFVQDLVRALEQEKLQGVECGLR
# Chain of UniProt Q01959 (whole entry, looked up): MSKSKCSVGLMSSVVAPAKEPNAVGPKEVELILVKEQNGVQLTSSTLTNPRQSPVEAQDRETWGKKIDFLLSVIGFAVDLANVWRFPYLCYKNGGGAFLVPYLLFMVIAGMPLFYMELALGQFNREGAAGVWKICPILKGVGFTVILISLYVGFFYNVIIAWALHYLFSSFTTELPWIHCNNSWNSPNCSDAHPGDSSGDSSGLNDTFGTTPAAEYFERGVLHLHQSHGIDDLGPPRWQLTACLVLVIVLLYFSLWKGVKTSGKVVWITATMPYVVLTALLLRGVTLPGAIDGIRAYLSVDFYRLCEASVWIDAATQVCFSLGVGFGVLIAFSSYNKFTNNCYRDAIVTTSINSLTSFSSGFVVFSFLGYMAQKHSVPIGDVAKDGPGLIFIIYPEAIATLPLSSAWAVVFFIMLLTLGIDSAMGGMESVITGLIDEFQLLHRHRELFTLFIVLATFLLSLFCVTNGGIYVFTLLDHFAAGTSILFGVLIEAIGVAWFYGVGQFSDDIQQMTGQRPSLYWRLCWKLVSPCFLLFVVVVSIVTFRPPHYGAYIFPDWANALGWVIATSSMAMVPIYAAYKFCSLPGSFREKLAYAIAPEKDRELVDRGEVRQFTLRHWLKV
# Chain of UniProt P23975 (whole entry, looked up): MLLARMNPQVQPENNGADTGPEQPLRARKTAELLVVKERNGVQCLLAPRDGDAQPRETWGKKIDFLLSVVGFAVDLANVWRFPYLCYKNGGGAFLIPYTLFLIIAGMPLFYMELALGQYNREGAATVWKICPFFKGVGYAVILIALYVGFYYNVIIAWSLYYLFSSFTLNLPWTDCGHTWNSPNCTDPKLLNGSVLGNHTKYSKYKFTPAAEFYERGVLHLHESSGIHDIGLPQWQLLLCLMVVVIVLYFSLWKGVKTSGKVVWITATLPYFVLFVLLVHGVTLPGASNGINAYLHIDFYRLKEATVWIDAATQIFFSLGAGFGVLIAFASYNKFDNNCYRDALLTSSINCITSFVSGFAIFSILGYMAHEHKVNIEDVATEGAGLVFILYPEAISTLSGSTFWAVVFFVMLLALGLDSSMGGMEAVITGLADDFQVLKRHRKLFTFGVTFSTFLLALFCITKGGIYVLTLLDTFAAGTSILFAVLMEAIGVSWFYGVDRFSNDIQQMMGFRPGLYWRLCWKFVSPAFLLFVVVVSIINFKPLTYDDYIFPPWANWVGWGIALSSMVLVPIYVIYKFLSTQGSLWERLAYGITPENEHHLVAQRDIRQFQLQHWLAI
# Chain of UniProt P35372 (whole entry, looked up): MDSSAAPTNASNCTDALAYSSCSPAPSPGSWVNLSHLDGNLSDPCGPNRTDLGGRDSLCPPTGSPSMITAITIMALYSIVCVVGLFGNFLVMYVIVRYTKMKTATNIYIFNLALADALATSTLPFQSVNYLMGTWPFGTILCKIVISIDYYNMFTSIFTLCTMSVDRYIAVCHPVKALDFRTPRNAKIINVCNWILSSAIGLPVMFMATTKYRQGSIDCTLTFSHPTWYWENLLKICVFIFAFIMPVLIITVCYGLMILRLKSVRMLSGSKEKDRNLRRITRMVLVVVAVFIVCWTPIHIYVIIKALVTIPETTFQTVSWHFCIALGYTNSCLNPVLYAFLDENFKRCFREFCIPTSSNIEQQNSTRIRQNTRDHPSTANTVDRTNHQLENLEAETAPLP
# Chain of UniProt P21918 (whole entry, looked up): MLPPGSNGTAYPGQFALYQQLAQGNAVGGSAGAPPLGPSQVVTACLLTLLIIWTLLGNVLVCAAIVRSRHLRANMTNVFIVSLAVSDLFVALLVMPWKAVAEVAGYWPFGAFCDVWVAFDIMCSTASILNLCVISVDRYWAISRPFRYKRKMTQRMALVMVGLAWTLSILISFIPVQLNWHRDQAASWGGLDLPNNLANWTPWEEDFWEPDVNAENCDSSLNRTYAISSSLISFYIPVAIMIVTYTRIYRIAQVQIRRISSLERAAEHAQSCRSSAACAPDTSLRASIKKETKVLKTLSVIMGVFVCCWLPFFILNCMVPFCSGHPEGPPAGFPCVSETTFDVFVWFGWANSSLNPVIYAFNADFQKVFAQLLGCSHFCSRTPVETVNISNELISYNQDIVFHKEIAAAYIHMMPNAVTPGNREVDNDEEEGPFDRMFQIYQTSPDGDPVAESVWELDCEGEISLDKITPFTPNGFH
# Chain of UniProt Q9Y6E0 (whole entry, looked up): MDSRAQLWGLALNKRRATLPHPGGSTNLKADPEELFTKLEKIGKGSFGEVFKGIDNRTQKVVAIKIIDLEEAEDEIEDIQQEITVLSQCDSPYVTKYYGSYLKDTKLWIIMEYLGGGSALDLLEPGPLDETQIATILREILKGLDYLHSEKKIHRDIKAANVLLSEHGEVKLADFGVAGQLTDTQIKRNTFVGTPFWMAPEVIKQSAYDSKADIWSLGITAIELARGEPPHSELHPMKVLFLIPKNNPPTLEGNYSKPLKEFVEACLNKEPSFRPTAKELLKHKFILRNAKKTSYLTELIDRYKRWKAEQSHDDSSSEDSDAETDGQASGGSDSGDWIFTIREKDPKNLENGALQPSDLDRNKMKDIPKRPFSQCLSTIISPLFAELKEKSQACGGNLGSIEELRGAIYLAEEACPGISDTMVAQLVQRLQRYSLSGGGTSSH

# Set 1 — effect on: enzyme activity; action: inhibitor; method: ADP-Glo
# SMILES: CNC(=O)c1ccc(-c2cnn3ccc(C(=O)N(C)c4ccc(Cl)c(C(=O)OC)c4)cc23)cc1
# Target: Phosphatidylinositol 4-kinase (Cryptosporidium parvum, UniProt Q5CVD3)
tested at,inhibition
0.006667 µM,101%
0.02 µM,101%
0.002222 µM,101%
2.74e-05 µM,96.7%
0.000247 µM,99.8%

# Set 2 — effect on: binding; method: radioligand binding; tested at: 10 µM
# SMILES: CC(=O)C1=C(C)N(c2cccc(C(F)(F)F)c2)C(=O)N[C@@H]1c1ccc(C#N)nc1
target,inhibition [%]
"Muscarinic acetylcholine receptor M3 (CHRM3, Homo sapiens, UniProt P20309)",10.4
"Sodium-dependent noradrenaline transporter (SLC6A2, Homo sapiens, UniProt P23975)",-17.5
"Sodium-dependent dopamine transporter (SLC6A3, Homo sapiens, UniProt Q01959)",-0.342
"Sodium-dependent serotonin transporter (SLC6A4, Homo sapiens, UniProt P31645)",-2.61
"Mu-type opioid receptor (OPRM1, Homo sapiens, UniProt P35372)",-5.41
"D(1B) dopamine receptor (DRD5, Homo sapiens, UniProt P21918)",0.739
"Kappa-type opioid receptor (OPRK1, Homo sapiens, UniProt P41145)",-13.6

# Set 3 — cell line: mouse MPNST tumor cells; method: high-content nuclear imaging; refers to: cell number; tested at: 10 µM; time: 12 h; notes: mean of 2 replicates; relative to: plate mean; direction: higher = more cells
Structure (SMILES),nuclei count
CCN(CC)C(C)C(=O)c1ccccc1 (stereo not shown),2.16 z-score
C[C@]12CC[C@H]3[C@@H](CCC4=CC(=O)CC[C@@H]43)[C@@H]1CC[C@@H]2O,1.57 z-score
CCCN(CCC)[C@@H]1CCc2cccc(O)c2C1,0.719 z-score
CCC(=O)O[C@H]1CC[C@H]2[C@@H]3CCC4=CC(=O)CC[C@]4(C)[C@H]3CC[C@]12C,4.35 z-score
C[N+]1([O-])C2CC(OC(=O)C(CO)c3ccccc3)CC1C1OC12 (stereo not shown),1.29 z-score
COC(=O)[C@@H](N)CCCNC(=N)N[N+](=O)[O-],0.401 z-score

# Set 4 — effect on: enzyme activity; action: inhibitor; tested at: 0.5 µM; relative to: control
# Compound: CCn1cnc2c(Nc3cccc(Cl)c3)nc(N[C@H]3CCCC[C@H]3N)nc21
target,remaining activity [%]
"Serine/threonine-protein kinase 24 (STK24, Homo sapiens, UniProt Q9Y6E0)",79
"Mitogen-activated protein kinase kinase kinase 11 (MAP3K11, Homo sapiens, UniProt Q16584)",77.6
"Myosin light chain kinase 2, skeletal/cardiac muscle (MYLK2, Homo sapiens, UniProt Q9H1R3)",95.2
"Lymphokine-activated killer T-cell-originated protein kinase (PBK, Homo sapiens, UniProt Q96KB5)",105
"Receptor tyrosine-protein kinase erbB-4 (ERBB4, Homo sapiens, UniProt Q15303)",103
"Calcium/calmodulin-dependent protein kinase type II subunit gamma (CAMK2G, Homo sapiens, UniProt Q13555)",104
"Mitogen-activated protein kinase 8 (MAPK8, Homo sapiens, UniProt P45983)",97.6
"Serine/threonine-protein kinase 26 (STK26, Homo sapiens, UniProt Q9P289)",104
"Death-associated protein kinase 3 (DAPK3, Homo sapiens, UniProt O43293)",105
"Protein kinase C beta type, isoform beta-II (PRKCB, Homo sapiens, UniProt P05771)",79.4

# For quick reference, copied from above (set 4):
target,remaining activity [%]
"Mitogen-activated protein kinase 8 (MAPK8, Homo sapiens, UniProt P45983)",97.6
"Death-associated protein kinase 3 (DAPK3, Homo sapiens, UniProt O43293)",105
